# Results of several laboratories.
# Each numbered part is a random draw from the data of one study; scales do not carry over between parts.

# Sample 1
# Target: Phosphate system positive regulatory protein PHO4, full length, GST-tagged (PHO4, Saccharomyces cerevisiae, UniProt P07270, residues 1-312)
# Technique: competition protein-binding microarray
# Molecule type: double-stranded DNA, one strand shown
# Sample: in vitro
# Concentration: 2 µM
# Setting: whole 60-bp probe, lowest competitor level
# Together with: Cbf1 competitor, 0.05 µM
# Direction: higher = stronger binding
# Construct (chain): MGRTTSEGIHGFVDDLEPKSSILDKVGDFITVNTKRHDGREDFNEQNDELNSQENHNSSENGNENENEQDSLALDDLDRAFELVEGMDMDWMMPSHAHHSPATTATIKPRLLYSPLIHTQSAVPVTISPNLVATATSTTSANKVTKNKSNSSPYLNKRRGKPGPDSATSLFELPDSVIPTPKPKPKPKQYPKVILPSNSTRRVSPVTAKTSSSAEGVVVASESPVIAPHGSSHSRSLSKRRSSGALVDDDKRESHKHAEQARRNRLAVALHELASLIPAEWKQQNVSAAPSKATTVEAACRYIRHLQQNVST
Strand,fluorescence intensity
TGCGCAACAACTTGTCACACGACTTTATGTCTAGAAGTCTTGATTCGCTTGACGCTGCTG,5800 a.u.
AGTGTCTGGGATGCGCTCGTGACGGTCGGCAGAGCAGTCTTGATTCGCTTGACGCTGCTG,7930 a.u.
TGCGAAAAGATTTCACACGTCAGTAAATCCGCGCAAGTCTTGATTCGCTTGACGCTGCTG,4480 a.u.
AAAGAACTCCCTTCGCATGTGATGAAGGTTATAGGTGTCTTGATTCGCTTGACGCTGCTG,9270 a.u.
GCCCGCTCCCGCCGGCTCGTGCCAGCAAATCAGACAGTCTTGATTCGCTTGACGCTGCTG,8710 a.u.
ACACTTTTGGCTCAACTCGTGTGGACAAAGCGATCTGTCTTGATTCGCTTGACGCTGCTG,8520 a.u.
CTTGGAATCAACTTGGTCATGACAACACCAGCAGTTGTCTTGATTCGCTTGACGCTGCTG,3790 a.u.
CTTTCCCGATCTTGATTCGTGGGTGTAGCACATTTGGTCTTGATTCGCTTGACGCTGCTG,6240 a.u.
TATATTGTTTGTTTGCACGTTTGATAAGTCCCTTAGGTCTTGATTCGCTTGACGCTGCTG,10100 a.u.
CCGGTGTTACCCAAGCTCGTGTTTTCACTGGTAACAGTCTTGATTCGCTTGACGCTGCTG,9990 a.u.
CCGTCTTAGCACCCGCACACGCAGACGCAGCGCTCAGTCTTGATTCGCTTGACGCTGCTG,8350 a.u.
TGCGCAACAACTTGTGAGGTGGGTGTATGTCTAGAAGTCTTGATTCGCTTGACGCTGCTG,5010 a.u.
CTAGATGTCAAAAGGCTTGTGACAGTATGTGGAGAAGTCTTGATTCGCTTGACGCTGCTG,4640 a.u.
TAACCCCCTCCTACCCACGCTATTCTTCAAATTCCGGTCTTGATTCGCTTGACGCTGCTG,6470 a.u.
CTTCTGTAAATTTGCTCCGTGGGTGGACGCGCCCCGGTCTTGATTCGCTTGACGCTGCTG,5610 a.u.
AACTTGCAAGGCTGTCCCGTGTCCTTCCTAATGGGTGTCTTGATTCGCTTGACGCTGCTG,7920 a.u.
TGGGGATGATGATAGTCCGTGACGGTTGCCAGGGAAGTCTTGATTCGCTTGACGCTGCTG,4380 a.u.
GGTTTTCGATTGGGCCTCGTGATGGAACACATCAGCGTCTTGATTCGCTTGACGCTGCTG,9260 a.u.
AAATTACTAAGTTGTCACTTTACTTACCCCGTATGAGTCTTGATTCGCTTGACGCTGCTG,3100 a.u.

# Sample 2
# Target: RNA binding protein fox-1 homolog 2, RRM domain, GST-SBP tag (RBFOX2, Homo sapiens, UniProt O43251-10, residues 100-194)
# Technique: RNA Bind-n-Seq
# Molecule type: RNA
# Sample: in vitro
# Concentration: 365 nM
# Setting: natural RNA segment, single round, ends assumed
# Relative to: no-protein control
# Direction: higher = stronger binding
# Construct (chain): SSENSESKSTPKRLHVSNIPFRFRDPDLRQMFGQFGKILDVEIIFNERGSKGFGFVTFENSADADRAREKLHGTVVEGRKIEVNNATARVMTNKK
Strand,RBNS enrichment (R)
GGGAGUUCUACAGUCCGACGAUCUUUUAACUGGUUUUAUUUUAAUUUUUAUUAUAUUUUCAGUUUUUCCAUAAAGGAACCACUUCCAACUUGUACCUAGUCUCCUUGCUUACUGUCCCCCUUUCUCCAGAAAGUGGAAUUCUCGGGUGCCAA,0.497
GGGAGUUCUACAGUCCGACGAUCCAGUGAACACCCCAGCAGCCUUUCAGCAAAUUGGCUUUGGACAUGGACCCUUCUCAGCCUGUACCAAGUACUGCAGCUCAGUGUCAUGAGCAUCCUUUGGAGCAGGUCAAUGGAAUUCUCGGGUGCCAA,0.355
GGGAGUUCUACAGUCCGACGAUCUUUUUUUGGCCAAAUCUCGUGGUGUUUCGCAGAAAAAAAUCCAGAAAAUUUCAAAUGCAGUUGAGUAUUCUUUUUUAAAUGCAGAUUUUCAAAACAUAUUUUUUUUCAGGUGGAAUUCUCGGGUGCCAA,1.11
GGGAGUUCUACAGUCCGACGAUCCUUCCUUGACAUCCAGUUCCUCCUUCAGGCUCAAACACCACCUCCUUUCUUCAGGACCUGCACUUAAUGUUUGAGGCUGUCUCUCCAGUCCCUCUCAGCAGGAGGGGUAAUGGAAUUCUCGGGUGCCAA,0.725
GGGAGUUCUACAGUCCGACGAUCCUGCCCCUUUCUGUCCCAUCCUUCCCAAGAAGAGAGAACUUUUUCGAUAAACUAACUACUGUAGAAGAAGUGAACACUUACCUGGAGGCUCACCUUGCAGAACCAGUGACUGGAAUUCUCGGGUGCCAA,0.329
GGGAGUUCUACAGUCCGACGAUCUGGUUGUAUCUAGAUCUUUGCUCUGUGUUUCAGUUGUGCCUUACCCUCUGUAAGAUACUGAUUCUUCCUGGGGCCAGUAUUACCUUGUAUGCAAAUAUUACAUAUGAUGGUGGAAUUCUCGGGUGCCAA,0.18
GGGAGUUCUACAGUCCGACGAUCGGCAUUUACUAGCCAGAGCUCUGAAAGGCAGUGCUGUCUGUUUCUUGUACUGGGACCAAAGUAAAAAUCCAAGCACAUUCCCCUUGCAGUUAGGGGAGGCCCUACUGCCUUGGAAUUCUCGGGUGCCAA,0.374
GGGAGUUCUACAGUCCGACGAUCUAUUGUUAAACACCAAGUUUCACAUACAAGAGGUUUCUUUCAUUGUCAAAUUAAGAUAUGUAUUUGUAAGUUAUUGGUGGCUCAUUUAAACUGUAUCAUACAGUAAUGCCUGGAAUUCUCGGGUGCCAA,0.467
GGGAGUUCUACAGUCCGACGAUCCACAGCCUCCCCUGGCUACCCAAGACAUUCCAGAAUGCUCCACCCUAUUGGCACAAGAAGUGGGGCACCCCCCCCCAGAAGGAACCAGAAACUAAGGCUAUCAAGGAGUGUGGAAUUCUCGGGUGCCAA,0.296
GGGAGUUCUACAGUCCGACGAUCCAAAGGUUGAGAAUGAGAAUUGUUUUUUCCUGGAUAUCAAAGGGAUUAUCACAGCGCAAUCAUUGUCUACACAACAUGUACUCUCAACGCCUGGGUUACAUAGGAAAUGCUGGAAUUCUCGGGUGCCAA,6.96
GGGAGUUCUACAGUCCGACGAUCAUGGAGUUGUUUACAUUAAGCAUGACCGAACGAGAGACAAUACUAUUUCCCACAGGAGUCCAUUGGGUUCAGCUUUGAAAGAGGAAUAGAAUCGAGGCUCCUUUGACCAUUGGAAUUCUCGGGUGCCAA,0.518
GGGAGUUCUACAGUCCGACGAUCUCAGAUCUCCCUUGCUAUUACAGUAGGUUACUAUUAAUGAGGGCAGCACCUGAUGCCUUUUGUACUGAGGUAUGUAACUUUCUCCUUAUUUGACAAGUAGAAGUUAACUUUGGAAUUCUCGGGUGCCAA,0.658

# Sample 3
# Target: RING finger protein unkempt homolog, zinc fingers 1-6, GST-SBP tag (UNK, Homo sapiens, UniProt Q9C0B0, residues 30-357)
# Chain of UniProt Q9C0B0 (30-357, looked up): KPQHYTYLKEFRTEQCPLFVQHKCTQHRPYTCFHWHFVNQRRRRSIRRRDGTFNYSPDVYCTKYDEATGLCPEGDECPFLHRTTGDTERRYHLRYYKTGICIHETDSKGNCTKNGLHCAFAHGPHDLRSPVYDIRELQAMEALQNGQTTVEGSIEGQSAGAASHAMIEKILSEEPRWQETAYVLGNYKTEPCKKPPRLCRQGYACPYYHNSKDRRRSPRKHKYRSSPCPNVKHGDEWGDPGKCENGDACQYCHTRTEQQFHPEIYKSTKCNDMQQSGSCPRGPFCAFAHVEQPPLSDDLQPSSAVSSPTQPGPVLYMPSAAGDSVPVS
# Technique: RNA Bind-n-Seq
# Molecule type: RNA
# Sample: in vitro
# Concentration: not given
# Setting: RNA with constant flanks, human and mouse sites, ends assumed
# Relative to: input RNA pool
# Direction: higher = stronger binding
Strand,bound/input enrichment [ratio]
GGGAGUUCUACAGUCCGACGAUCCCUGUUCGAGGCAGCUAUCUUACAGACUGCAUGAAUGUAAGAGUAGGAAUGGGGUGGGUGUUAGGAUCAUUCGGGAUCUUCGACACUUGAAACAAAAUUACACCUGGGAGCUGCAGCCAGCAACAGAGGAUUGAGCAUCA,0.373
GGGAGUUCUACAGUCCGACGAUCGAUGGUCUGGAAAAAUCUUUCUACUCCUUUUAUGUUUGUACAGCAGUUAGGAAGUUCUUCUUCUUUUUAGAUCCUUUAAGAACAGGAAAGAUAAAAAUUCAAGAUAUUUUAGCAUGCAGCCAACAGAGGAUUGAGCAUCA,1.01
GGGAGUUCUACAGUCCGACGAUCGAUAAAAUGAUUGAUGUAGCUCUUUACAUUGGGAAAGGAGCUUGACAUGCUUAGCUUCCUAUAGAAGUCAGGACCGGCUGGUGUGCGGAGUGUUUCAGUUCAGAGCCUAAACUGAAAGGGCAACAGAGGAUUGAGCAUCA,0.53
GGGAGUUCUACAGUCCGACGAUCUGUUUUCAUGCCCGGCCUUUGUUCCUCCAUAAAUGUGUCCUUUAGUUUCAAACAGAUCUUUAUAGUUCGUGCUUCAUAAGCCAAUUCUUAUUAUUAUUUUUGGGGGACUCUUCUUCAAAGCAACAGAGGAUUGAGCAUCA,8.04
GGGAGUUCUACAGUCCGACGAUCAUCUUUUGGUUAUUCUAAGCCCUUUGCCAUCAAUGAUCAUAUCAAUUGGCAGUGACUUUGUAUAGAGAAUUUAAGUAGAAAAGUUGCAGAUGUAUUGACUGUACCACAGACACAAUAUGUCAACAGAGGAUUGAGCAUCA,1.35
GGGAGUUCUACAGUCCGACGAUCCUCAAUGGCUUGGAACCAGAAAAUAUCCACAUGAUGAUUGGGUCUAUGACAAUCGACUGCUUAGGAAUUCUAAAUGAUCUCUCCGACUGUGAAGAUAAGCUCUUUCCUAUUGGAUAUCAGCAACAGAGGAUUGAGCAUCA,0.429
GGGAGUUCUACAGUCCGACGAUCAUAAAGACUGAGCACUACAAAACAGAUCUUCAUUCUCCAAGAGGACAAGCGUCGGAUAGUAUAAACCCCAUGUCUAGGGUGCUAAGCCCCCUGAGUCCUCAAAUCAGCCCUUGCAGCUCCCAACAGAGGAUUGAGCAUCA,0.203
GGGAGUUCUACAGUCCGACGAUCGACUAGACGUUUUGGAUUUACGAUUCUAUUUUGUCGUUCGGUUGGUGGAAGAUGUGCUCGUAGCUCUAUUUUCCAUGACAGAUAGUGACGACACUACGUGCAAAAGGUAUAUAAAGAUGACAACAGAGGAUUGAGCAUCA,0.405
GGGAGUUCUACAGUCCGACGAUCGCGCUGGGGGUAAGGGUUACAAAUAAUGAAUUAAAUCAUAUUGGUCAUUAGGACAGAUGCUAGCUGGCUUUUCUAUUUUAACUGACAAGUCCAGAGCAUAUACAAGUGCAUGAAGUGAGACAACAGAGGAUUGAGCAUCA,1.29
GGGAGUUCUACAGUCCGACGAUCGCAUCUCCCUGCUCCCCUCAACCCCCUCCCACCCCAUCCACGCCCCCUACCUUUCCCAAUUUUAGUUUCAUGCAAUAAAAAGGCCAAACUUUUUAUUCCAUAAAACAAGAAGGACAAAACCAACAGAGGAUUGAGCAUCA,1.32
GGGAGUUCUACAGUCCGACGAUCGGGCCGGAACCGGAAUCAUGGUUGCUUGGUUUGACUUCAAGCCAUUUAUGAGACAUUAAACCUGAAAAUGGAAAACAGAGUAAGAUCCUCCUUAGAAGCUCUGAGCUGUUGCUAAUGGCACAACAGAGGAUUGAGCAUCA,0.154

# Sample 4
# Target: Histone acetyltransferase KAT6A, both winged helices, GST fusion (KAT6A, Homo sapiens, UniProt Q92794, residues 1-181)
# Technique: protein binding microarray
# Molecule type: double-stranded DNA, one strand shown
# Sample: in vitro
# Concentration: not given
# Setting: 8-mer, flanks averaged, mean of 2 arrays, mostly near background
# Relative to: not given
# Direction: higher = stronger binding
# Construct (chain): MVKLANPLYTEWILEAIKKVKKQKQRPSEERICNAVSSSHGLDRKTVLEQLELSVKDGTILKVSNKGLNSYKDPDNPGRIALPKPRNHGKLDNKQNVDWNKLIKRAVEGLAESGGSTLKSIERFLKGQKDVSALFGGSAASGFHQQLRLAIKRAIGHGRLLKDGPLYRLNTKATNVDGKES
Strand,E-score
GCTGCACC,0.0218
AGGTGTGA,-0.122
TAGCTGAA,-0.164
AGAGAAAC,-0.0456
GATAAAGA,-0.0753
CAGTTGAC,-0.0284
AGGAAACA,-0.164
ACGTTGTA,-0.0563
ACTGCCCG,0.187
ATGGCCAT,-0.163
AAGTGTCG,0.00626
AGGTACTG,-0.141
GGACTACA,-0.0447
AAGGATAT,-0.0335
AGCGCCAC,0.197
CAAAACGG,0.163
CCTATAGA,-0.0387
ACCCTTCC,-0.058
CAGTAATA,-0.065
AACGTTTG,0.0508

# Some of these lines once more (sample 4):
Strand,E-score
GGACTACA,-0.0447
AGAGAAAC,-0.0456
ACCCTTCC,-0.058
AAGTGTCG,0.00626
ATGGCCAT,-0.163
CAAAACGG,0.163
AGGAAACA,-0.164
CAGTTGAC,-0.0284
